Measurements from different studies.
Protocols differ between the studies behind these lines. ± gives the spread as reported.
rep main protease: Replicase polyprotein 1ab, main protease (rep, Severe acute respiratory syndrome coronavirus 2, UniProt P0DTD1)
rep nsp14 with nsp10: Replicase polyprotein 1ab, nsp14 with nsp10 (rep, Severe acute respiratory syndrome coronavirus 2, UniProt P0DTD1)
rep nsp3 Mac1 domain: Replicase polyprotein 1ab, nsp3 Mac1 domain (rep, Severe acute respiratory syndrome coronavirus 2, UniProt P0DTD1)
rep nsp14: Replicase polyprotein 1ab, nsp14 (rep, Severe acute respiratory syndrome coronavirus 2, UniProt P0DTD1)

SMILES = Cc1ccc(S(=O)(=O)N[C@H](Cc2ccccc2C#N)C(=O)N[C@H](Cc2ccc(Cl)cc2Cl)C(=O)N[C@H](CC(=O)NCCCCN(C)C)Cc2ccc(F)cc2)cc1; target or system = rep main protease; assay = enzyme activity, inhibitor; endpoint = IC50; value = > 10 µM
SMILES = O=C(O)C(O)=CC(=O)C1(Cc2ccc(Cl)cc2)CCN(C(=O)C=Cc2ccccc2)CC1; target or system = rep nsp14 with nsp10; assay = exonuclease activity, inhibitor; endpoint = IC50; value = 20 ± 1.8 µM
SMILES = O=C(Oc1cccc2cccnc12)c1cccs1; target or system = rep nsp3 Mac1 domain; assay = enzyme activity, inhibitor, AlphaScreen; endpoint = IC50; value = 7.95 ± 0.8 µM
SMILES = Cc1ccc(S(=O)(=O)Nc2cccc(C(=O)NC3CCN(c4ncnc5[nH]cnc45)CC3)c2)cc1Cl; target or system = SARS-CoV-2; test system = Wuhan-Hu-1; conditions = 0.09145 µM; how to read = baseline: untreated infected cells; endpoint = relative infection; value = 82.8%
SMILES = Oc1nc(/C=C/c2ccc(Cl)cc2Cl)cc(C(F)(F)F)n1; target or system = Replicase polyprotein 1ab, nsp16 with nsp10 (rep, Severe acute respiratory syndrome coronavirus 2, UniProt P0DTD1); assay = enzyme activity; conditions = 2 h preincubation, no DTT; endpoint = IC50; value = 9 ± 1 µM
SMILES = CC1=C[C@@H](CN2CCN(c3ncccn3)CC2)[C@H](C(C)C)C[C@H]1Cc1nnc(Cc2c[nH]c3ccccc23)o1; target or system = Replicase polyprotein 1ab, nsp4-nsp5-nsp6 precursor (rep, Severe acute respiratory syndrome coronavirus 2, UniProt P0DTD1); assay = reporter gene, inhibitor, Rev-Nluc cell; endpoint = IC50; value = > 50 µM
SMILES = CC[C@H](C)[C@H](NC(=O)[C@H](C)NC(=O)[C@H](CCC(=O)O)NC(=O)[C@H](CCC(=O)O)NC(=O)[C@H](CC(C)C)NC(=O)[C@H](CCCCN)NC(=O)[C@H](CCCCN)NC(=O)[C@H](CCSC)NC(=O)[C@H](CCC(=O)O)NC(=O)[C@H](Cc1ccc(O)cc1)NC(=O)[C@H](CCC(=O)O)NC(=O)[C@H](CC(C)C)NC(=O)[C@H](CC(=O)O)NC(=O)[C@H](CC(C)C)NC(=O)[C@H](Cc1ccccc1)NC(=O)[C@@H](NC(=O)[C@@H](NC(=O)[C@H](CC(N)=O)NC(=O)[C@@H](NC(=O)[C@H](CCC(N)=O)NC(=O)[C@H](CC(=O)O)NC(=O)[C@H](CC(C)C)NC(=O)[C@H](CO)NC(=O)[C@H](CC(C)C)NC(=O)[C@H](CC(=O)O)NC(=O)[C@@H]1CCCN1C(=O)[C@H](C)N)[C@@H](C)CC)C(C)C)[C@@H](C)O)C(=O)N[C@@H](CCCCN)C(=O)N[C@@H](CCCCN)C(=O)N[C@@H](CC(C)C)C(=O)N[C@@H](CCC(=O)O)C(=O)N[C@@H](CCC(=O)O)C(=O)N[C@@H](CO)C(=O)N[C@@H](Cc1ccc(O)cc1)C(=O)N[C@H](C(=O)N[C@@H](CC(=O)O)C(=O)N[C@@H](CC(C)C)C(=O)N[C@@H](CCCCN)C(=O)N[C@@H](CCC(=O)O)C(=O)N[C@@H](CC(C)C)C(=O)O)[C@@H](C)CC; target or system = SARS-CoV-2 XBB.1.5 pseudovirus; assay = pseudovirus infection, inhibitor, luciferase; test system = Caco-2; conditions = 24 h; endpoint = IC50; value = 0.0665 µM
SMILES = O=C(Nc1ccc(F)cc1)C1C(=O)N(O)C(=O)c2cc([N+](=O)[O-])ccc21 (centres unmarked); target or system = rep nsp14 with nsp10; assay = exonuclease activity, inhibitor; endpoint = IC50; value = 6.9 µM
SMILES = CN(C)CCCCNC(=O)C[C@H](Cc1ccc(F)cc1)NC(=O)[C@@H](Cc1ccc(Cl)cc1Cl)NC(=O)[C@@H](O)Cc1ccccc1C#N; target or system = rep main protease; assay = enzyme activity, inhibitor; endpoint = IC50; value = 0.6 µM
SMILES = O=C(O)C(O)=CC(=O)c1ccc2cc(O)c(O)cc2c1; target or system = rep nsp14 with nsp10; assay = exonuclease activity, inhibitor; endpoint = IC50; value = 1.86 ± 0.16 µM
SMILES = CC(=O)NCCCCNC(=O)C[C@H](Cc1ccc(F)cc1)NC(=O)[C@@H](Cc1ccc(Cl)cc1Cl)NC(=O)[C@H](N)Cc1ccccc1C#N; target or system = rep main protease; assay = enzyme activity, inhibitor; endpoint = IC50; value = 0.08 µM
SMILES = O=C(O)c1cc(OC2OC(CO)C(O)C(O)C2O)c2ccccc2c1O (centres unmarked); target or system = rep nsp3 Mac1 domain; assay = enzyme activity, inhibitor, fluorescence polarization; endpoint = IC50; value = > 300 µM
SMILES = O=C(O)C(O)=CC(=O)c1cc(Oc2ccccc2)cc(Oc2ccccc2)c1; target or system = rep nsp14 with nsp10; assay = exonuclease activity, inhibitor; endpoint = IC50; value = > 50 µM
SMILES = N#Cc1ccccc1C[C@@H](N)C(=O)N[C@H](Cc1ccc(Cl)cc1Cl)C(=O)N[C@H](CC(=O)NCCCCN1CCOCC1)Cc1ccc(F)cc1; target or system = rep main protease; assay = enzyme activity, inhibitor; endpoint = IC50; value = 0.07 µM
SMILES = CC[C@H](C)[C@H](NC(=O)[C@H](C)NC(=O)[C@H](CCC(=O)O)NC(=O)[C@H](CCC(=O)O)NC(=O)[C@H](CC(C)C)NC(=O)[C@H](CCCCN)NC(=O)[C@H](CCCCN)NC(=O)[C@H](CCSC)NC(=O)[C@H](CCC(=O)O)NC(=O)[C@H](Cc1ccc(O)cc1)NC(=O)[C@H](CCC(=O)O)NC(=O)[C@H](CC(C)C)NC(=O)[C@H](CC(=O)O)NC(=O)[C@H](CC(C)C)NC(=O)[C@H](Cc1ccccc1)NC(=O)[C@H](Cc1ccccc1)NC(=O)[C@@H](NC(=O)[C@H](CC(N)=O)NC(=O)[C@@H](NC(=O)[C@H](CCC(N)=O)NC(=O)[C@H](CC(=O)O)NC(=O)[C@H](CC(C)C)NC(=O)[C@@H](N)CO)[C@@H](C)CC)C(C)C)C(=O)N[C@@H](CCCCN)C(=O)N[C@@H](CCCCN)C(=O)N[C@@H](CC(C)C)C(=O)N[C@@H](CCC(=O)O)C(=O)N[C@@H](CCC(=O)O)C(=O)N[C@@H](C)C(=O)N[C@@H](Cc1ccc(O)cc1)C(=O)N[C@H](C(=O)N[C@@H](CC(=O)O)C(=O)N[C@@H](CC(C)C)C(=O)N[C@@H](CCCCN)C(=O)N[C@@H](CCC(=O)O)C(=O)N[C@@H](CC(C)C)C(=O)O)[C@@H](C)CC; target or system = SARS-CoV-2 Delta pseudovirus; assay = pseudovirus infection, inhibitor, luciferase; test system = Caco-2; conditions = 24 h, dual mutations; endpoint = IC50; value = 0.813 µM
SMILES = COc1cccc(CNC(=O)c2cc(S(=O)(=O)N3CCC(C)CC3)c(C)n2C)c1; target or system = rep nsp14; assay = enzyme activity, inhibitor; endpoint = IC50; value = 0.2 µM
SMILES = O=C(NC1CCN(c2ncnc3[nH]cnc23)CC1)c1cccc(S(=O)(=O)Nc2ccc(Cl)cc2)c1; target or system = SARS-CoV-2; test system = Wuhan-Hu-1; conditions = 0.823 µM; how to read = baseline: untreated infected cells; endpoint = relative infection; value = 57.4%
SMILES = Cc1c(S(=O)(=O)N2CCC(C)CC2)cc(C(=O)NCc2ccccc2)n1C; target or system = rep nsp14; assay = enzyme activity, inhibitor; endpoint = IC50; value = 0.36 µM
SMILES = C#CCCCCNC(=O)C[C@H](Cc1ccc(F)cc1)NC(=O)[C@@H](Cc1ccc(Cl)cc1Cl)NC(=O)[C@H](N)Cc1ccccc1C#N; target or system = rep main protease; assay = enzyme activity, inhibitor; endpoint = IC50; value = 0.1 µM
SMILES = O=C(NCc1ccccc1)C1C(=O)N(O)C(=O)c2cc([N+](=O)[O-])ccc21 (centres unmarked); target or system = rep nsp14 with nsp10; assay = exonuclease activity, inhibitor; endpoint = IC50; value = 7.8 µM
SMILES = COc1cccc(C(=O)N(CCC(=O)N2CCNCC2)Cc2cccc(Cl)c2)c1; target or system = rep nsp3 Mac1 domain; assay = enzyme activity, inhibitor, AlphaScreen; endpoint = IC50; value = 74.9 ± 4.5 µM
SMILES = O=C(O)C(O)=CC(=O)C1(Cc2ccc(Cl)cc2)CCN(Cc2ccc3ccccc3c2)CC1; target or system = rep nsp14 with nsp10; assay = exonuclease activity, inhibitor; endpoint = IC50; value = > 50 µM
SMILES = CN(C)CCCCNC(=O)C[C@H](Cc1ccc(F)cc1)NC(=O)[C@@H](Cc1ccc(Cl)cc1Cl)NC(=O)[C@@H](Cc1ccccc1C#N)NS(C)(=O)=O; target or system = rep main protease; assay = enzyme activity, inhibitor; endpoint = IC50; value = 0.5 µM

Some of these lines once more:
SMILES = COc1cccc(C(=O)N(CCC(=O)N2CCNCC2)Cc2cccc(Cl)c2)c1; target or system = rep nsp3 Mac1 domain; assay = enzyme activity, inhibitor, AlphaScreen; endpoint = IC50; value = 74.9 ± 4.5 µM
SMILES = O=C(O)C(O)=CC(=O)c1cc(Oc2ccccc2)cc(Oc2ccccc2)c1; target or system = rep nsp14 with nsp10; assay = exonuclease activity, inhibitor; endpoint = IC50; value = > 50 µM
